Results collected from several papers.
Lines come from different studies, so protocols differ. Several values in a cell are separate wells, animals, samples, runs or records. Numbers after ± are the reported error.
U2AF2: U2AF2 148-342 (Homo sapiens, UniProt P26368)
Sequence of UniProt P26368 (whole entry, looked up): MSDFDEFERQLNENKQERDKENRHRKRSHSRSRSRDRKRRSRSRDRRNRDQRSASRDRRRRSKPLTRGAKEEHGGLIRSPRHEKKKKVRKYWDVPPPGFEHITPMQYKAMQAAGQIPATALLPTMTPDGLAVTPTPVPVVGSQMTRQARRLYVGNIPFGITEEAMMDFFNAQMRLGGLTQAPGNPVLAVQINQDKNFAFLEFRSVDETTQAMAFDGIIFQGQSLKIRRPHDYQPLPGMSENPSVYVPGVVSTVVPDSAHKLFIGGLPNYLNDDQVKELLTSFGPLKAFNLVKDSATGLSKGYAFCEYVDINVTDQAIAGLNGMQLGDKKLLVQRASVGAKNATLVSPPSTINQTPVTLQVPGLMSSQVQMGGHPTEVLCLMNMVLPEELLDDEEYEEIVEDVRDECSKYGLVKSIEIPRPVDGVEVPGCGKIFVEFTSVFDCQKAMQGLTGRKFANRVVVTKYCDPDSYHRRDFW
B1: Mena EVH1 1-113 (Homo sapiens, UniProt Q8N8S7); chain MSEQSICQARAAVMVYDDANKKWVPAGGSTGFSRVHIYHHTGNNTFRVVGRKIQDHQVVINCAIPKGLKYNQATQTFHQWRDARQVYGLNFGSKEDANVFASAMMHALEVLNS
B2: human semenogelin-1; sequence looked up; chain QKGGSKGRLPSEFSQFPHGQKGQHYSGQKGKQQTESKGSFSIQYTYHVDANDHDQSRKSQQYDLNALHKTTKSQRHLGGSQQLLHNKQEGRDHDKSKGHFHRVVIHHKGGKAHRGTQNPSQDQGNSPSGKGISSQYSNTEERLWVHGLSKEQTSVSGAQKGRKQGGSQSSYVLQTEELVANKQQRETKNSHQNKGHYQNVVEVREEHSSKVQTSLCPAHQDKLQHGSKDIFSTQDELLVYNKNQHQTKNLNQDQQHGRKANKISYQSSSTEERRLHYGENGVQKDVSQSSIYSQTEEKAQGKSQKQITIPSQEQEHSQKANKISYQSSSTEERRLHYGENGVQKDVSQRSIYSQTEKLVAGKSQIQAPNPKQEPWHGENAKGESGQSTNREQDLLSHEQKGRHQHGSHGGLDIVIIEQEDDSDRHLAQHLNNDRNPLFT
B3: UBQLN2 450-624 S624C (UniProt Q9UHD9); Alexa Fluor 488 at C624; chain RAMQALMQIQQGLQTLATEAPGLIPSFTPGVGVGVLGTAIGPVGPVTPIGPIGPIVPFTPIGPIGPIGPTGPAAPPGSTGSGGPTGPTVSSAAPSETTSPTSESGPNQQFIQQMVQALAGANAPQLPNPEVRFQQQLEQLNAMGFLNREANLQALIATGGDINAAIERLLGSQPC
B4: IL18 37-193 N50C/C74S/C104S/L174C (Homo sapiens, UniProt Q14116); chain YFGKLESKLSVIRCLNDQVLFIDQGNRPLFEDMTDSDSRDNAPRTIFIISMYKDSQPRGMAVTISVKSEKISTLSCENKIISFKEMNPPDNIKDTKSDIIFFQRSVPGHDNKMQFESSSYEGYFLACEKERDLFKLICKKEDELGDRSIMFTVQNED
B5: NFKBIA 67-287 (Homo sapiens, UniProt P25963); sequence looked up; chain KQQLTEDGDSFLHLAIIHEEKALTMEVIRQVKGDLAFLNFQNNLQQTPLHLAVITNQPEIAEALLGAGCDPELRDFRGNTPLHLACEQGCLASVGVLTQSCTTPHLHSILKATNYNGHTCLHLASIHGYLGIVELLVSLGADVNAQEPCNGRTALHLAVDLQNPDLVSLLLKCGADVNRVTYQGYSPYQLTWGRPSTRIQQQLGQLTLENLQMLPESEDEE
B6: Cacng2 203-323 (Mus musculus, UniProt O88602); chain DRHKQLRATARATDYLQASAITRIPSYRYRYQRRSRSSSRSTEPSHSRDASPVGVKGFNTLPSTEISMYTLSRDPLKAATTPTATYNSDRDNSFLQVHNCIQKDSKDSLHANTANRRTTPV
B7: human hnRNP L; sequence looked up; chain MSRRLLPRAEKRRRRLEQRQQPDEQRRRSGAMVKMAAAGGGGGGGRYYGGGSEGGRAPKRLKTDNAGDQHGGGGGGGGGAGAAGGGGGGENYDDPHKTPASPVVHIRGLIDGVVEADLVEALQEFGPISYVVVMPKKRQALVEFEDVLGACNAVNYAADNQIYIAGHPAFVNYSTSQKISRPGDSDDSRSVNSVLLFTILNPIYSITTDVLYTICNPCGPVQRIVIFRKNGVQAMVEFDSVQSAQRAKASLNGADIYSGCCTLKIEYAKPTRLNVFKNDQDTWDYTNPNLSGQGDPGSNPNKRQRQPPLLGDHPAEYGGPHGGYHSHYHDEGYGPPPPHYEGRRMGPPVGGHRRGPSRYGPQYGHPPPPPPPPEYGPHADSPVLMVYGLDQSKMNCDRVFNVFCLYGNVEKVKFMKSKPGAAMVEMADGYAVDRAITHLNNNFMFGQKLNVCVSKQPAIMPGQSYGLEDGSCSYKDFSESRNNRFSTPEQAAKNRIQHPSNVLHFFNAPLEVTEENFFEICDELGVKRPSSVKVFSGKSERSSSGLLEWESKSDALETLGFLNHYQMKNPNGPYPYTLKLCFSTAQHAS
B8: ATG9 864-997 (Saccharomyces cerevisiae, UniProt Q12142); sequence looked up; chain SFLNNKYSWRKQFQPGQKPELFRIGKHALGPGHNISPAIYSTRNPGKNWDNNNNGDDIKNGTNNATAKNDDNNGNNDHEYVLTESFLDSGAFPNHDVIDHNKMLNSNYNGNGILNKGGVLGLVKEYYKKSDVGR
B9: SRS2 1107-1174 (Saccharomyces cerevisiae, UniProt P12954); N-terminal cysteine BODIPY-FL; chain CHNPDDTTVDNRPIISNAKFLADAAMKKTQKFSKKVKNEPASSQMDIFSQLSRAKKKSKLNNGEIIVID
B10: BTN2A1 residues 271-527 (Homo sapiens, UniProt Q7KYR7); chain KLQKEKKILSGEKEFERETREIALKELEKERVQKEEELQVKEKLQEELRWRRTFLHAVDVVLDPDTAHPDLFLSEDRRSVRRCPFRHLGESVPDNPERFDSQPCVLGRESFASGKHYWEVEVENVIEWTVGVCRDSVERKGEVLLIPQNGFWTLEMHKGQYRAVSSPDRILPLKESLCRVGVFLDYEAGDVSFYNMRDRSHIYTCPRSAFSVPVRPFFRLGCEDSPIFICPALTGANGVTVPEEGLTLHRVGTHQSL
B11: NOTCH3 EGF5-12 197-505 (Homo sapiens, UniProt Q9UM47); sequence looked up; chain PAVPCAPSPCRNGGTCRQSGDLTYDCACLPGFEGQNCEVNVDDCPGHRCLNGGTCVDGVNTYNCQCPPEWTGQFCTEDVDECQLQPNACHNGGTCFNTLGGHSCVCVNGWTGESCSQNIDDCATAVCFHGATCHDRVASFYCACPMGKTGLLCHLDDACVSNPCHEDAICDTNPVNGRAICTCPPGFTGGACDQDVDECSIGANPCEHLGRCVNTQGSFLCQCGRGYTGPRCETDVNECLSGPCRNQATCLDRIGQFTCICMAGFTGTYCEVDIDECQSSPCVNGGVCKDRVNGFSCTCPSGFSGSTCQ
B12: Cid14/Air1 69-684 D298A/D300A (Schizosaccharomyces pombe); chain 1 MVEIGSKKSRNDNDSEGIRDKGGVEISNKNDPYIQFGKADPLEPLEKPDLPEEAIKRGEPTILLGIPKREGRKTNPVHDKAVENNSDFIKFDWNSDEDEDSVSNDKSKNNESLKKSSKNEIPGFMRQRGRFFHEANEKSDSNRKRKRQAYELDSQSCPWHRQYKVEREVSRIFHQDILHFIDYITPTPEEHAVRKTLVSRINQAVLQKWPDVSLYVFGSFETKLYLPTSALALVIISPEHHYRGTKKDMFVLAHHLKKLKLASEVQVITTANVPIIKFVDPLTKVHVDISFNQPGGLKTCLVVNGFMKKYPALRPLVIIIKHFLNMRALNEVFLGGLSSYAIVCLVVSFLQLHPRLSTGSMREEDNFGVLLLEFLELYGKQFYYDAVGIAVHNGGFYFSKKKMGWLKPNQPYLLSIQDPVDFQNDVSKSSRGLLRVKATFANGFDLLTSKLYALASRIEREGVNRVKDFPSILSTILSVDEGVRQHREHMLKCYKNNPVPLEPLVEVDALASIDVDKLPLQDVGLQYVEDESDSDETDAAKDDLFKVNESIETNGHENFQKQALTSTGEQSSSNSRANPSKLFNISSDDSEDEVPIIEDTTASDEESRAKKIRKRF; chain 2 MDMTVSNQKAESDDGSDIDDAALLQKINSLPIDQSITNSVSLEKHDFQGSDDHDSSTDLSDSTLEDVEGSEWADVSRGRYFGSDPSESIVCHNCKGNGHISKDCPHVLCTTCGAIDDHISVRCPWTKKCMNCGLLGHIAARCSEPRKRGPRVCRTCHTDTHTSSTCPLIWRYYVEKEHPVRIDVSEVRKFCYNCASDEHFGDDCTLPSRSNYPESTAFCEANCPSGNDASNKEFFETRRKEFQLERREQNRNQKSSKQRPFH
B13: spdl-1 C-terminal 362-479 (Caenorhabditis elegans, UniProt Q17695); sequence looked up; chain PVVNKDFEHPLLAAPLKTLNNGRPSFFIKPKNVEPMPQLGHSLSSIAVTPQKPAAKFTTRSSIKDDTSEWAERRMKAQAEKKLATPTPRYNYIKLSEPVPKFKPAVLQMPSTSETKEN
B14: designed binder (Homo sapiens); chain MASAARLTMMWEEVTCPICLDPFVEPVSIECGHSFCQECISQVGKGGGSVCPVCRQRFLLKNLRPNRQLANMVNNLKEISQEAREGTQGERCAVHGERLHLFCEKDGKALCWVCAQSRKHRDHAMVPLEEAAQEYQEKLQVALGELRRKQELAEKLEVEIAIKRADWKKTVETQKSRIHAEFVQQKNFLVEEEQRQLQELEKDEREQLRILGEKEAKLAQQSQALQELISELDRRCHSSALELLQEVIIVLERSESWNLKDLDITSPELRSVCHVPGLKKMLRTCAGGGGSGGGGSGGGGSRLDAPSAIRVYRVTDVYAIIYWYVPLAEIDGFELTYGIKDVPGDRTTIKLTEDDSTYVIYRLKPDTEYEVSLISRRGDMSSNPAKITFKTGL
Sequence of UniProt Q9NR61 (whole entry, unmodified, looked up): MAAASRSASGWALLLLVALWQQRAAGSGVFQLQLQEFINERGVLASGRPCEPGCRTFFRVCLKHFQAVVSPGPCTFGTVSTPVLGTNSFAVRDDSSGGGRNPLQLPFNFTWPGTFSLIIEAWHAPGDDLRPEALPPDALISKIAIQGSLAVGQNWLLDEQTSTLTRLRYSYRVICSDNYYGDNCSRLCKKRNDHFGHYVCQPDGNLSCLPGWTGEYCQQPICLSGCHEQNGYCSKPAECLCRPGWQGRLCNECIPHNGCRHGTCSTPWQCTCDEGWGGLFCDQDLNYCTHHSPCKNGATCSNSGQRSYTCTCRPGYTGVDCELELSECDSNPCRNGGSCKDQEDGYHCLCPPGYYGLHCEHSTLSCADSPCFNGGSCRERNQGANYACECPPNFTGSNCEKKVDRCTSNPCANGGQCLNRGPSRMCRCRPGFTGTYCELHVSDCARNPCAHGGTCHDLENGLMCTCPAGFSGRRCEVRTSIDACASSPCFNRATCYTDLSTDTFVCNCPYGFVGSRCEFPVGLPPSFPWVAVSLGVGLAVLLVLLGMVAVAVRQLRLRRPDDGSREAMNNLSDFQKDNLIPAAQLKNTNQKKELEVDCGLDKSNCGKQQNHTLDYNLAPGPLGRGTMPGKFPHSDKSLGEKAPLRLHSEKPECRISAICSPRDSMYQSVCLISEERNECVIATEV
Sequence of UniProt Q95XP9 (whole entry, looked up): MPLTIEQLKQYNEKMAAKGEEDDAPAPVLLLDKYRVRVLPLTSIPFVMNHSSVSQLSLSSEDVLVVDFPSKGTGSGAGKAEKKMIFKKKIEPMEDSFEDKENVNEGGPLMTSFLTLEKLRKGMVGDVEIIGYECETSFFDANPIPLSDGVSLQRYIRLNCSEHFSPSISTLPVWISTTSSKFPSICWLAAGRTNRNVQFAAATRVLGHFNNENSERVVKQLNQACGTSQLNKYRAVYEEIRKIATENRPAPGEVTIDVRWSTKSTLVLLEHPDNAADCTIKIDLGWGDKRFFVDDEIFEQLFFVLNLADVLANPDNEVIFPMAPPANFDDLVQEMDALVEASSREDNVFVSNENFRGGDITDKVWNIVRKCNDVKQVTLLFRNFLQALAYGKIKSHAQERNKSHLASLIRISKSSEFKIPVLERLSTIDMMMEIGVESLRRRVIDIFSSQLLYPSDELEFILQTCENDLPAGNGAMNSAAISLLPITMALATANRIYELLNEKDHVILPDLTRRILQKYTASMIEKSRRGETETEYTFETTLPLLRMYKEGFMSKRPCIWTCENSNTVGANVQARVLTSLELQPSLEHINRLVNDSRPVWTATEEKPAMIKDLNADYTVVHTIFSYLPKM
Sequence of UniProt Q14669 (whole entry, looked up): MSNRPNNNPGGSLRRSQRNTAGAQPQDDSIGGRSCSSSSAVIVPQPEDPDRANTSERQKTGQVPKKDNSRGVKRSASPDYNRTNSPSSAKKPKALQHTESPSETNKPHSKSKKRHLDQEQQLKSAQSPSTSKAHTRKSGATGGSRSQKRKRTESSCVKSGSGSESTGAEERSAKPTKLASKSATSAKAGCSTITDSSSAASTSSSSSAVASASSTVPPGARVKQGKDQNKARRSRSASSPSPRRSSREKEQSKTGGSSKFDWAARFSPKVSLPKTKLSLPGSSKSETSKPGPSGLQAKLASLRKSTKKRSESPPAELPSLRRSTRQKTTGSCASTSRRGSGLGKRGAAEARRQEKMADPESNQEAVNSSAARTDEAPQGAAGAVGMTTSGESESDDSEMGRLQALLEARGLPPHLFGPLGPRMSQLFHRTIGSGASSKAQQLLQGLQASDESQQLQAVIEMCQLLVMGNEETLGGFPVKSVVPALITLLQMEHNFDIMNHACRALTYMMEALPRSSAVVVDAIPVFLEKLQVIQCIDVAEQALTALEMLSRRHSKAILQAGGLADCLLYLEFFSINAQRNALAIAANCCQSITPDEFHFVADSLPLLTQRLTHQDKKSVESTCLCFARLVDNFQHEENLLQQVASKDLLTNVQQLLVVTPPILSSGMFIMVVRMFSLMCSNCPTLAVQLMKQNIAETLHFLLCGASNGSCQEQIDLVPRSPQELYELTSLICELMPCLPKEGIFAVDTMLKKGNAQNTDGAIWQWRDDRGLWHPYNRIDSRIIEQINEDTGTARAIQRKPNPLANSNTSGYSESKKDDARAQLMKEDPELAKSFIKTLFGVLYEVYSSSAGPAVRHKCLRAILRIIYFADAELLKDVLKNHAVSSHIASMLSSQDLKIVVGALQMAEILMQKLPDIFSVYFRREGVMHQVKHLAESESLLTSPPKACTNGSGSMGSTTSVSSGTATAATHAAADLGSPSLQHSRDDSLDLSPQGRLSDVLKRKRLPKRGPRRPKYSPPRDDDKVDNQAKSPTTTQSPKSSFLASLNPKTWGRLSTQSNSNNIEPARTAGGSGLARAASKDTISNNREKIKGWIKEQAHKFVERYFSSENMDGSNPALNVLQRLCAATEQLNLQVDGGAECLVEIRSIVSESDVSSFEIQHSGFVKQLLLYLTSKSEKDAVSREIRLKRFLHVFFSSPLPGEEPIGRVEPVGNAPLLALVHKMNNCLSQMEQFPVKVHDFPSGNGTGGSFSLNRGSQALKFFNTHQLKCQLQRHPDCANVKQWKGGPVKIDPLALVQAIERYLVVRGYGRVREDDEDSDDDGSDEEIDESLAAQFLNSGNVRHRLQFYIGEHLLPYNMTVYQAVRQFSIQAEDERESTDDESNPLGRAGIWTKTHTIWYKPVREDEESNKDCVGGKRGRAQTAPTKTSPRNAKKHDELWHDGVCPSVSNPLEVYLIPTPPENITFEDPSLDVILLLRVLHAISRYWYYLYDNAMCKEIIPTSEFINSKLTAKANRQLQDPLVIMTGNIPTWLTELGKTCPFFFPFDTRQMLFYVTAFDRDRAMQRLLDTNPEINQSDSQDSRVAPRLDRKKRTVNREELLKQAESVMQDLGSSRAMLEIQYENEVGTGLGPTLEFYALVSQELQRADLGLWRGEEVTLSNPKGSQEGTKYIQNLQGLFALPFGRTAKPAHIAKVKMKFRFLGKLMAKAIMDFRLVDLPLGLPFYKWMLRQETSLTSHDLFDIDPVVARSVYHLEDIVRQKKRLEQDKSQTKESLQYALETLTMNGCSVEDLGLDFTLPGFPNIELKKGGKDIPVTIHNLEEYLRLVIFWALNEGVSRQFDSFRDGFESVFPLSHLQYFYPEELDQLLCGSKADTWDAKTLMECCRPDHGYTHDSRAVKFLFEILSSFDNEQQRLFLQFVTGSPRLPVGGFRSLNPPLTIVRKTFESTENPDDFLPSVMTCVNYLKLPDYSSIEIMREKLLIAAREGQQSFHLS
Sequence of UniProt O14232 (whole entry, looked up): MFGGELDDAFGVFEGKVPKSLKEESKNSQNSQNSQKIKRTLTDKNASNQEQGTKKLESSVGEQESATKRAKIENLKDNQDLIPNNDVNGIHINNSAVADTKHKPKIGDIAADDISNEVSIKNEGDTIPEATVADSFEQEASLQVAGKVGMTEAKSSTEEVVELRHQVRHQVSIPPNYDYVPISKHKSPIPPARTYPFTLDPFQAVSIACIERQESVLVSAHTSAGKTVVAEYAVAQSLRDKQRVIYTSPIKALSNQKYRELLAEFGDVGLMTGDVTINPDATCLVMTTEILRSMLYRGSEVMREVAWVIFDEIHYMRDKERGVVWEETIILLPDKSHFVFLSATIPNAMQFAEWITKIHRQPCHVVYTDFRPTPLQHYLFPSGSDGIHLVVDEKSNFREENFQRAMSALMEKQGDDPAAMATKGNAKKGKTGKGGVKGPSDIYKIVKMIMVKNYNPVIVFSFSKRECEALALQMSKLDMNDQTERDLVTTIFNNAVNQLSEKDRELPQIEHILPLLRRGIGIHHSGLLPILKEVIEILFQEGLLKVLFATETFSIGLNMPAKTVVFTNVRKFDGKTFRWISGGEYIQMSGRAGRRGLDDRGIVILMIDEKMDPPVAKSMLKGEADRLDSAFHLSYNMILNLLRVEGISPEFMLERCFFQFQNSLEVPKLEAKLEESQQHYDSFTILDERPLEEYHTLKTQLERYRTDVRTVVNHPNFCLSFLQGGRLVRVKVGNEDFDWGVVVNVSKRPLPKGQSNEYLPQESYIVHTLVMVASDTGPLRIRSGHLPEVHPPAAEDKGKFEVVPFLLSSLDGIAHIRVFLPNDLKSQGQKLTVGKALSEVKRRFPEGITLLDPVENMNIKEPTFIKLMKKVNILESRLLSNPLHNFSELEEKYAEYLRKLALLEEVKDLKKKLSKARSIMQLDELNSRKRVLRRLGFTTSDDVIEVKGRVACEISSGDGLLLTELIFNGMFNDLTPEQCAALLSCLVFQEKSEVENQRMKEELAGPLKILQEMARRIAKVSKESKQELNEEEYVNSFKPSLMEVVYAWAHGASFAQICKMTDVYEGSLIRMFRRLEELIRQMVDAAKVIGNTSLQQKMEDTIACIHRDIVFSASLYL

The Kd of `IERRRRFNINDRIKELG (TFEB residues 243-259)` is reported as 79.2 nM (TRIP12 (Homo sapiens, UniProt Q14669); MST; peptide, 293T, lysate; GFP-tagged).
`B1 (Mena EVH1 1-113)` gave a Kd of 13800 nM and 8400 nM (PTP1B (Homo sapiens); intrinsic tryptophan fluorescence).
With `Cacna1c fragment F1748E (Rattus norvegicus)` the Kd was 8000 ± 3000 nM (CACNA1C IQ motif 1644-1668, fluorescein label (UniProt P15381); fluorescence polarisation).
`B2 (human semenogelin-1)` — result for “log2 fold change”: 4.37 (PP6C (human); co-immunoprecipitation, IP-MS; CYB5R4 knockout cells; concentration not given; baseline: CYB5R4 knockout over parental).
`CDH23 EC1-2 (Anolis carolinensis)` gave a Kd of 2300 ± 1000 nM (PCDH15 EC1-2 (Anolis carolinensis); SPR).
`B3 (UBQLN2 450-624 S624C)` gave a Kd of 3360 nM (ubiquitin (UniProt P0CG48); fluorescence polarisation).
`GRIN2A fragment, pS1459 (sequence not shown)` gave a Kd of 13700 nM (SNX27 fragment (Rattus norvegicus); ITC).
The Kd of `B4` is reported as 0.014 nM (IL18BP (Homo sapiens, UniProt O95998); SPR).
For `AUUUAUAUG (ssRNA)`, the Kd was 12900 nM (U2AF2; sequencing of bound RNA; RNA; motif only).
With `Trastuzumab IgG1 (Homo sapiens)` the Kd was 2.3 nM (FCGR1A (Homo sapiens, UniProt P12314); SPR).
For `B5 (NFKBIA 67-287)`, the Kd was 19 nM (RelA/NFKB1 190-321 F309A; ITC).
`Notch ankyrin domain D117A/R107A (Drosophila)` gave a Kd of 5710 nM (dx (Drosophila melanogaster, UniProt Q23985); AUC).
`B6 (Cacng2 203-323)` gave a Kd of 900 nM (DLG4 fragment, pS73 (Homo sapiens); ITC).
`MBL-A mature, hydroxylysine, hydroxyproline in collagen (Rattus norvegicus, UniProt P19999)` has a Kd of 144 nM (C1S fragment (Homo sapiens); SPR; with: CaCl2 140 mM).
Under “log2 fold change”, `B7 (human hnRNP L)` is recorded as -2.59 (PP6C (human); co-immunoprecipitation, IP-MS; CYB5R4 knockout cells; concentration not given; baseline: CYB5R4 knockout over parental).
`B8 (ATG9 864-997)` has a Kd of 460 nM (Atg23 full-length, dimer (yeast, UniProt Q06671); BLI).
With `B9 (SRS2 1107-1174)` the Kd was 138 nM (POL30 1-258 K164R (Saccharomyces cerevisiae, UniProt P15873); fluorescence polarisation; apparent).
`B10 (BTN2A1 residues 271-527)` gave a Kd of greater than 100000 nM (BTN3A1 fragment (Homo sapiens); ITC).
For `PARRSEELVAEAHNLCTLLENAIQDTVREQDQSFTALDWSWLQTE (IKBKB 701-745 K703R/K704R (UniProt O14920); N-terminal FITC; sequence looked up)`, the Kd was 532 nM (IKBKG 44-113 E110V/R106E/E78R/R75V/L55R/T50E; fluorescence polarisation; peptide).
The Kd of `B11 (NOTCH3 EGF5-12 197-505)` is reported as 49 nM (DLL4 27-400 G28S/F107L/I143F/H194Y/L206P/N257P/T271L/F280Y/S301R/Q305P (Homo sapiens, UniProt Q9NR61); SPR).
`B12 (Cid14/Air1 69-684 D298A/D300A)` gave a Kd of 174 ± 19 nM (mtr4 (Schizosaccharomyces pombe, UniProt O14232); SPR).
The Kd of `B13 (spdl-1 C-terminal 362-479)` is reported as 53300 ± 16200 nM (zwl-1 (Caenorhabditis elegans, UniProt Q95XP9); MST).
`PF4/KKO tetramer` gave a Kd of 30 nM (GP6 monomer (UniProt Q9HCN6); SPR).
The Kd of `B14 (designed binder)` is reported as 174.2 ± 1.7 nM (MALT1 (Homo sapiens, UniProt Q9UDY8); BLI; designed binder).
For `AUUGUUUUC (ssRNA)`, the Kd was 3370 nM (U2AF2; sequencing of bound RNA; RNA; motif only).
`KLLMIIHDRREFAKFEKEKMNAKWDTQENPIYKSPINNFKNPNYGRKAGL (ITGB1 752-801 (Homo sapiens, UniProt P05556-5); sequence looked up)` has a Kd of 63000 nM (Tln2 312-408 E375D (Mus musculus, UniProt Q71LX4); NMR titration).
